Published values of several laboratories.
Parts stem from different laboratories: compare values within a part only.

Set 1 — technique: RNA Bind-n-Seq; form: RNA; sample: in vitro; concentration: 365 nM; reference: no-protein control; reading: higher = stronger binding; measurement: RBNS enrichment (R)
Target: RNA binding protein fox-1 homolog 2, RRM domain, GST-SBP tag (RBFOX2, Homo sapiens, UniProt O43251-10, residues 100-194)
Setting: natural RNA segment, single round, ends assumed
GGGAGUUCUACAGUCCGACGAUCAUUUUUCAUUCUAGGGACACUAAAAAAGAAAUCUGGGGAACAUCCGGGCUUUUGUAUAUUACCUGCUGAUCUUGUACACUUAAUCUGUUUACUGUUGUUCACAGAUGAAAUGGAAUUCUCGGGUGCCAA: 0.386
GGGAGUUCUACAGUCCGACGAUCAUAUUUUGGUCUGGGUUUCCUCUUAAGAUUUUAGUUUGUCUGAAUUAAGGAAAAAUGUUUUUAAUAUACAUUCUUAUUUUGUCCCACCCCUCCAGAAAUAAGCUGGAAAUUGGAAUUCUCGGGUGCCAA: 0.643
GGGAGUUCUACAGUCCGACGAUCAAGGAGGGUUGACUCAGAACCCAGAGACAAUACAAAACCCCUCACUUCCUCUGAGAGGGCCAAAUGCUGUGAGUCUGAAGUAUGUGCCUGGUGUGAAAUGAUCUAUGGCCUGGAAUUCUCGGGUGCCAA: 0.545
GGGAGUUCUACAGUCCGACGAUCAAACCCCUAACUCCCUCCAGACACCCAGGGAAUACCCUCUGCCCCACAGGAUUGAAGACUGCUUGGCAGUCCUCCCAAUCCCACACCUCCUGUUUGCCAGGGGAAAGAACUGGAAUUCUCGGGUGCCAA: 0.503

Set 2 — technique: universal PBM; form: double-stranded DNA, one strand shown; sample: in vitro; concentration: not given; reading: higher = stronger binding; measurement: E-score
Target: Sal-like protein 4, full length isoform B (SALL4, Homo sapiens, UniProt Q9UJQ4-2, residues 1-616)
Setting: 8-mer, flanks averaged, mean of replicates
Construct (chain): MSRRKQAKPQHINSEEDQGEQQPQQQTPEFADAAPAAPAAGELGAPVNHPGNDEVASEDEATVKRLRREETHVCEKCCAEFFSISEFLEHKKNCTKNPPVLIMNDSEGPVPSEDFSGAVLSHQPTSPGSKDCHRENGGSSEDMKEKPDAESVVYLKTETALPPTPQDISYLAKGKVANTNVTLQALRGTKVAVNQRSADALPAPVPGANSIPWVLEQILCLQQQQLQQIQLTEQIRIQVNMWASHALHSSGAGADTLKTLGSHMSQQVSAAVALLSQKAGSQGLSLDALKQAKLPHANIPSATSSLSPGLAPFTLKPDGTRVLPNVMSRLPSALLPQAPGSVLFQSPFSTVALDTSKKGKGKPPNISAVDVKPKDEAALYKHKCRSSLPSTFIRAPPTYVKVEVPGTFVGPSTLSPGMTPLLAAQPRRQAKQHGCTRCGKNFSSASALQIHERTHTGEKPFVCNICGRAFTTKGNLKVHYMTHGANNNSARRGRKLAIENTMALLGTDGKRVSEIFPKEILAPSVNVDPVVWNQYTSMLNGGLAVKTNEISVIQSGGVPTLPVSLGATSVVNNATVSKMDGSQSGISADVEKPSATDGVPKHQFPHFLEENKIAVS
CAGTGACA: 0.0219
AAATGTCA: 0.16
TGATTCAA: 0.177
CTTCCTGC: -0.163
CACTTGGA: 0.0424

Set 3 — technique: protein-binding microarray; form: double-stranded DNA, one strand shown; sample: in vitro; concentration: not given; reading: higher = stronger binding; measurement: E-score
Target: Transcription factor Sp1 (SP1, Homo sapiens, UniProt P08047, residues 1-785, full length assumed)
UniProt P08047, sequence (whole entry, looked up): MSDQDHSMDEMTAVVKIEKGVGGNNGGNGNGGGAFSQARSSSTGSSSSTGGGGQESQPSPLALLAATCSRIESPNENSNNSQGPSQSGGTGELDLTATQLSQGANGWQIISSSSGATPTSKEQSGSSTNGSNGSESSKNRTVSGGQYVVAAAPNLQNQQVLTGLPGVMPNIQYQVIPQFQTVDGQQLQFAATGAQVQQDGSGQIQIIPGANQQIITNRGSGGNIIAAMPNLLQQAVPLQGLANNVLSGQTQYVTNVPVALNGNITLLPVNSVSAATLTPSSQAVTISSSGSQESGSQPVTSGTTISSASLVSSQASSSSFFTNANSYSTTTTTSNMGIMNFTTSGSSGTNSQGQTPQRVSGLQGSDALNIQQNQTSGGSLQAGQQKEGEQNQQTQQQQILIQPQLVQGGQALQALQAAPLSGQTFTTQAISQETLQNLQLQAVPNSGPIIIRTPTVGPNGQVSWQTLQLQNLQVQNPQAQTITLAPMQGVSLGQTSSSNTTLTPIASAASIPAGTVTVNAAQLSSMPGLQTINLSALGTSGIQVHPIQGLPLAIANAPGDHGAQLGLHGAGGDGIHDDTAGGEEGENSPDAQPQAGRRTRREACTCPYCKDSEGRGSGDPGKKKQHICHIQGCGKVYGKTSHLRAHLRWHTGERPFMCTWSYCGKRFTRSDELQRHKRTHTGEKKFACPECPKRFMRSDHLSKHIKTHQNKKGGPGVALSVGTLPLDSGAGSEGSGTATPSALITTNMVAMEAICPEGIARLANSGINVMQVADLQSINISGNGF
Setting: k-mer, scored over probes, only values ≥0.25
GGCATATA: 0.267
CCCTCCTA: 0.344
AGAAATGG: 0.254
GTGGGATA: 0.316
CCCTTTAC: 0.339

Further values, each from its own experiment
PhoQ, residues 284 288 289 292 302 303 TGYLSA  fold induction (PhoP, residues 12 14 15 18 19 FWNTL (Escherichia coli, UniProt P23836); Sort-seq, item: YFP reporter; E. coli; PhoQ-PhoP variant library, with: 10 µM Mg2+; reference: high Mg2+ state, higher = stronger signaling): 8.9

For quick reference, copied from above (set 3):
GGCATATA: 0.267
